Experimental data of several laboratories.
Each numbered part is a random draw from the data of one study; scales do not carry over between parts.
Chain of UniProt P07333 (whole entry, looked up): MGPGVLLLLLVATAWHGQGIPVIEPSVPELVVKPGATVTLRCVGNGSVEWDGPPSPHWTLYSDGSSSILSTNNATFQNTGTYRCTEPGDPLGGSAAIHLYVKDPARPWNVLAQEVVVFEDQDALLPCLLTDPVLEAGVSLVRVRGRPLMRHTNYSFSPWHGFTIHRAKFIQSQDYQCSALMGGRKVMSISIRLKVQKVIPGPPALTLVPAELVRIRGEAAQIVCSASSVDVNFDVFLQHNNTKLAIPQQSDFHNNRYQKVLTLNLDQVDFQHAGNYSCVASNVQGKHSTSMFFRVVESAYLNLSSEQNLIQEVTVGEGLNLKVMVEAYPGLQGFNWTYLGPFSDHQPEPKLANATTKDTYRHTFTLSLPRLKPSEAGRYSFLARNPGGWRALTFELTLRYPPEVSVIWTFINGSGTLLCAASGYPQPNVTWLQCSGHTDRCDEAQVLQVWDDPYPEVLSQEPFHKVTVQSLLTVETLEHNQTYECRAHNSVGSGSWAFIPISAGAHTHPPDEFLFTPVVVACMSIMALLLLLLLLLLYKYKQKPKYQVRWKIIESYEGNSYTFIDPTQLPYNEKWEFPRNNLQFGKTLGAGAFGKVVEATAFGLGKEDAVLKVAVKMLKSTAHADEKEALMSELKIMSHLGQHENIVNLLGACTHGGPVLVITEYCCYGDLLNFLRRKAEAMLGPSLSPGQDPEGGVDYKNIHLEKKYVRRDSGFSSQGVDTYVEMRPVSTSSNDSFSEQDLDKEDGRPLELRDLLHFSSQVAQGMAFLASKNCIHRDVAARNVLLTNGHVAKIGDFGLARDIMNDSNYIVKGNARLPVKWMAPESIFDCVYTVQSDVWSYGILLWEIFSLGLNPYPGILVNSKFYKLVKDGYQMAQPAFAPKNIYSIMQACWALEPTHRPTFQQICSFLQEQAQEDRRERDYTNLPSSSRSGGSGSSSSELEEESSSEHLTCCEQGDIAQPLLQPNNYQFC
Chain of UniProt Q9UPE1 (whole entry, looked up): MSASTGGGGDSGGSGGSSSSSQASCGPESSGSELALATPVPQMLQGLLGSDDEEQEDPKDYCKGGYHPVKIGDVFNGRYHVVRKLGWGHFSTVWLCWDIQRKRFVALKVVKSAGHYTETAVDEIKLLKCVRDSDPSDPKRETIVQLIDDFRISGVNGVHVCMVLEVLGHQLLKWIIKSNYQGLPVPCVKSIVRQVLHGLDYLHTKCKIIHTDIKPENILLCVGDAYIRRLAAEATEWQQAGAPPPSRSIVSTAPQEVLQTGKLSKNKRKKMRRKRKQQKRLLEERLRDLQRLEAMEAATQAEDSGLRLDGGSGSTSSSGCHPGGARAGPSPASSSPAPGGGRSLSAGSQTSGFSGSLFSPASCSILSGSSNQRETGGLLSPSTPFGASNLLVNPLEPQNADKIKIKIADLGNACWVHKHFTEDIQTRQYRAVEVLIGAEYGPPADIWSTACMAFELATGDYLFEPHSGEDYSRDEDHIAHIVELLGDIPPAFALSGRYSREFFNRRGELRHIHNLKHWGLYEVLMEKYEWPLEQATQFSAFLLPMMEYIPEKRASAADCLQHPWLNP
Chain of UniProt P51812 (whole entry, looked up): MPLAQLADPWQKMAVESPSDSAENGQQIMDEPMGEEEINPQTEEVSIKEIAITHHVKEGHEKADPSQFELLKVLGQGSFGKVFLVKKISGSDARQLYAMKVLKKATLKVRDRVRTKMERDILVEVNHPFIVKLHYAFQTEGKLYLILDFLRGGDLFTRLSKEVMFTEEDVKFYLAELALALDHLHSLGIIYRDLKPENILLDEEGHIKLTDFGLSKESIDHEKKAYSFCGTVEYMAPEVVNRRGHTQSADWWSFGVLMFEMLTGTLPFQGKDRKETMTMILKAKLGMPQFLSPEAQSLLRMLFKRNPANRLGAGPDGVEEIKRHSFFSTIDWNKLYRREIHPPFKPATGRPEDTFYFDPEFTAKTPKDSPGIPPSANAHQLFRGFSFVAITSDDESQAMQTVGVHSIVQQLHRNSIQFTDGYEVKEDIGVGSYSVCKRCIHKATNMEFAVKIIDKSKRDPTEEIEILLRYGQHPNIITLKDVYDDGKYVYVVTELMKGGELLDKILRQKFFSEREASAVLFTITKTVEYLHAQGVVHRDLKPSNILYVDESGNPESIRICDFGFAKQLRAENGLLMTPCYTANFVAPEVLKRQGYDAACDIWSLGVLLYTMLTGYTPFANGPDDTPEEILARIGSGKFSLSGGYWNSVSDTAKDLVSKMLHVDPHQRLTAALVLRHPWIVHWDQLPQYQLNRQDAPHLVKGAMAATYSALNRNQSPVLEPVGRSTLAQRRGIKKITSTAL
Chain of UniProt Q16566 (whole entry, looked up): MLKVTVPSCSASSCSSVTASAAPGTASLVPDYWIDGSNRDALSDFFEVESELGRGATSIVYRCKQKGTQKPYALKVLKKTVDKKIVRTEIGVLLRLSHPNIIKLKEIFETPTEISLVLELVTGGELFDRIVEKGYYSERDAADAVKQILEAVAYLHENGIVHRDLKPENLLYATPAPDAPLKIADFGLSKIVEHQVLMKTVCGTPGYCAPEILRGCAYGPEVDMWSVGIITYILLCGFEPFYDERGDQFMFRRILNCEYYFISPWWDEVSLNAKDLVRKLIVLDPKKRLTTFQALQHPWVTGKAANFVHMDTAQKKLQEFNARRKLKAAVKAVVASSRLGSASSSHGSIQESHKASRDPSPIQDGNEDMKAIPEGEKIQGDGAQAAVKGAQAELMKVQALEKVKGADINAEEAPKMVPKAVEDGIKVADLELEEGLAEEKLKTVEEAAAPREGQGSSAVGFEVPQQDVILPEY
Chain of UniProt Q8NEB9 (whole entry, looked up): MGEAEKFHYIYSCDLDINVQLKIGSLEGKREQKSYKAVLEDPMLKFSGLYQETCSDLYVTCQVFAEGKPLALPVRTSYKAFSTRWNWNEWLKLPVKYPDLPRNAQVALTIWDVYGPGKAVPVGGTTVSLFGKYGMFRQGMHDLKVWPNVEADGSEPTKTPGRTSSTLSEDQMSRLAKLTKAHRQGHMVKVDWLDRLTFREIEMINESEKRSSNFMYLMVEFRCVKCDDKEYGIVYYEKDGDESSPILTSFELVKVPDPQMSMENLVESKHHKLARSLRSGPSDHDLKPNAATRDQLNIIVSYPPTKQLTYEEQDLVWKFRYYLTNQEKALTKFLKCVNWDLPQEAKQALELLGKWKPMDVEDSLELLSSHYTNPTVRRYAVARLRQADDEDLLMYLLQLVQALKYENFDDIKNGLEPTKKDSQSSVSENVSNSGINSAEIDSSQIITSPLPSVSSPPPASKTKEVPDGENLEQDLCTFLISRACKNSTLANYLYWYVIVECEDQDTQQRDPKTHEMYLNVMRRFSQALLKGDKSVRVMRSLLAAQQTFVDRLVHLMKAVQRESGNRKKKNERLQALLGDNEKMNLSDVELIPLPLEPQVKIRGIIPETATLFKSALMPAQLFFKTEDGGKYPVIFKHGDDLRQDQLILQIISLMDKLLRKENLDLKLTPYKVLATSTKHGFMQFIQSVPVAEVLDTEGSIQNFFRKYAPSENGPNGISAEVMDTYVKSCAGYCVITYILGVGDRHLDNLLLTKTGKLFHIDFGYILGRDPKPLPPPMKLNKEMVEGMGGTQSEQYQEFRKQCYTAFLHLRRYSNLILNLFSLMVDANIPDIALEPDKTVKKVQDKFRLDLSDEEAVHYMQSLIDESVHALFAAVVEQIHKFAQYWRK
Chain of UniProt P36894 (whole entry, looked up): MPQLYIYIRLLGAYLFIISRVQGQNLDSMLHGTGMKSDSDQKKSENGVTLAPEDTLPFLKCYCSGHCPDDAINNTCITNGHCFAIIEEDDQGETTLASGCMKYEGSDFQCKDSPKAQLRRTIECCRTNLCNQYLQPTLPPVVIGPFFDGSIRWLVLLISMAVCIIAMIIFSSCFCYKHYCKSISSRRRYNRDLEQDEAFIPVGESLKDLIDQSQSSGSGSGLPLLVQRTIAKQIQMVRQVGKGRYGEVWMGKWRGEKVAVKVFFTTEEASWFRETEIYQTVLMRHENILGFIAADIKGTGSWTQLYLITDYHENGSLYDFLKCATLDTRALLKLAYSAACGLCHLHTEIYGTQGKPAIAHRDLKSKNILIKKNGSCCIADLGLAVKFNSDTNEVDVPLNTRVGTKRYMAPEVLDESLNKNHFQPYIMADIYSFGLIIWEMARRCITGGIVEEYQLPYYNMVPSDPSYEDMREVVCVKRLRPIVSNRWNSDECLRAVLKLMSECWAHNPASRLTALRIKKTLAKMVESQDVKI
Chain of UniProt Q9UQB9 (whole entry, looked up): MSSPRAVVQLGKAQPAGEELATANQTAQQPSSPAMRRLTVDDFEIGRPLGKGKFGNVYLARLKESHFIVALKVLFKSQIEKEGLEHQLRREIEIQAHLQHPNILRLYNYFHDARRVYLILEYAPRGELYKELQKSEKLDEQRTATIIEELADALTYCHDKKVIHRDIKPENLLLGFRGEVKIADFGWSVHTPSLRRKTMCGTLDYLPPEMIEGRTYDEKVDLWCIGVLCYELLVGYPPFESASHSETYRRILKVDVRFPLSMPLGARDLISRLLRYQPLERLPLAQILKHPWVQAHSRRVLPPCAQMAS

Sample 1
SMILES: O=C(Nc1cccnn1)N1CCC(=Cc2cccc(Oc3ccc(C(F)(F)F)cn3)c2)CC1
Observed: cell-free assay
Technique: competition with immobilised ligand
Concentration: 1 µM
Receptor-type tyrosine-protein kinase FLT3 (FLT3, Homo sapiens, UniProt P36888, D835V) — remaining binding: 100%.
Calcium/calmodulin-dependent protein kinase kinase 2 (CAMKK2, Homo sapiens, UniProt Q96RR4) — remaining binding: 73%.
For Rho-associated protein kinase 2 (ROCK2, Homo sapiens, UniProt O75116): remaining binding read 100%.
The remaining binding was 100% (Macrophage colony-stimulating factor 1 receptor, autoinhibited (CSF1R, Homo sapiens, UniProt P07333)).
For Bone morphogenetic protein receptor type-1A (BMPR1A, Homo sapiens, UniProt P36894): remaining binding read 100%.
The remaining binding was 100% (Tyrosine-protein kinase ABL1, phosphorylated (ABL1, Homo sapiens, UniProt P00519, Y253F)).
Ribosomal protein S6 kinase alpha-3, C-terminal kinase domain (RPS6KA3, Homo sapiens, UniProt P51812) — remaining binding: 100%.
Calcium/calmodulin-dependent protein kinase type 1 (CAMK1, Homo sapiens, UniProt Q14012) — remaining binding: 100%.
For Receptor-type tyrosine-protein kinase FLT3 (FLT3, Homo sapiens, UniProt P36888, K663Q): remaining binding read 100%.
It gave 100% for remaining binding (Tyrosine-protein kinase Blk (BLK, Homo sapiens, UniProt P51451)).
The remaining binding was 98% (Serine/threonine-protein kinase Nek4 (NEK4, Homo sapiens, UniProt P51957)).
It gave 81% for remaining binding (Serine/threonine-protein kinase DCLK2 (DCLK2, Homo sapiens, UniProt Q8N568)).
For Serine/threonine-protein kinase VRK2 (VRK2, Homo sapiens, UniProt Q86Y07): remaining binding read 100%.
The remaining binding was 100% (Inhibitor of nuclear factor kappa-B kinase subunit epsilon (IKBKE, Homo sapiens, UniProt Q14164)).
The remaining binding was 63% (Calcium/calmodulin-dependent protein kinase type IV (CAMK4, Homo sapiens, UniProt Q16566)).
The remaining binding was 82% (Calcium/calmodulin-dependent protein kinase type II subunit delta (CAMK2D, Homo sapiens, UniProt Q13557)).
For Epidermal growth factor receptor (EGFR, Homo sapiens, UniProt P00533, A750P/del747-749): remaining binding read 100%.
For Phosphatidylinositol 3-kinase catalytic subunit type 3 (PIK3C3, Homo sapiens, UniProt Q8NEB9): remaining binding read 100%.

Sample 2
Target: Beta-1 adrenergic receptor (ADRB1, Homo sapiens, UniProt P08588)
Chain of UniProt P08588 (whole entry, looked up): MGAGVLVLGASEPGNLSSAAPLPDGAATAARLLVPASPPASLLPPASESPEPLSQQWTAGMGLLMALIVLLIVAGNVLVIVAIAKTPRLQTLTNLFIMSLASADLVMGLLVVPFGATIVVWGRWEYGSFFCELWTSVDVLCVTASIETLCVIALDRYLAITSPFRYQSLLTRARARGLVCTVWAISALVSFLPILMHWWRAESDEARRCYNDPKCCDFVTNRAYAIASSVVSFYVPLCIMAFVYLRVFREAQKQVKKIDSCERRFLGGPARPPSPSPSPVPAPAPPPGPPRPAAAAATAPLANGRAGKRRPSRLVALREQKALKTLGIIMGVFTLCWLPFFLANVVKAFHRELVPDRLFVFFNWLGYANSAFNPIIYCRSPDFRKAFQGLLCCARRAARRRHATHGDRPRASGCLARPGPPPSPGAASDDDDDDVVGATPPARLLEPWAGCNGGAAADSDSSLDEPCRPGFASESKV
Action: agonist
For `COc1ccccc1N1CCN(CC(O)COc2cccc3ccccc23)CC1` (stereo not shown), the Emax was 89.3%.
`CN(Cc1ccccc1)Cc1ccccc1OCC(O)CN1CCCCC1` (stereo not shown) gave an Emax of 96.3%.
`CN(CCC(N)=O)Cc1ccccc1OCC(O)CN1CCc2ccccc2C1` (stereo not shown) has an Emax of 92.6%.
`COc1ccccc1N1CCN(CCCCN[S+](=O)([O-])c2cccc3c(N(C)C)cccc23)CC1` has an Emax of 54.3%.
With `CN1CCc2cc(O)c(O)cc2C1Cc1ccc(O)c(O)c1` (stereo not shown) the Emax was 84%.
For `CN1Cc2sccc2C(c2ccc(O)c(O)c2)C1` (stereo not shown), the Emax was 72.2%.
`COc1ccccc1N1CCN(CCC(=O)Nc2ccc3c(c2)OCCO3)CC1` has an Emax of 33.5%.
For `COc1ccccc1N1CCN(C2CC(=O)N(CCc3ccccc3)C2=O)CC1` (stereo not shown), the Emax was 29.1%.

Sample 3
Structure (SMILES): c1ccc2c(-c3ccncc3)c[nH]c2c1
Observed: enzyme activity
Action: inhibitor
Concentration: 0.5 µM
Baseline: control
It gave 93.1% for remaining activity (Aurora kinase C (AURKC, Homo sapiens, UniProt Q9UQB9)).
Protein kinase C epsilon type (PRKCE, Homo sapiens, UniProt Q02156) — remaining activity: 81.5%.
It gave 93.8% for remaining activity (Serine/threonine-protein kinase Sgk1 (SGK1, Homo sapiens, UniProt O00141)).
The remaining activity was 84% (Serine/threonine-protein kinase PAK 2 (PAK2, Homo sapiens, UniProt Q13177)).
The remaining activity was 98.2% (Ephrin type-A receptor 7 (EPHA7, Homo sapiens, UniProt Q15375)).
Ribosomal protein S6 kinase beta-1 (RPS6KB1, Homo sapiens, UniProt P23443) — remaining activity: 79.9%.
It gave 84.6% for remaining activity (Fibroblast growth factor receptor 4 (FGFR4, Homo sapiens, UniProt P22455)).
It gave 99.4% for remaining activity (Protein kinase C gamma type (PRKCG, Homo sapiens, UniProt P05129)).
For Ribosomal protein S6 kinase alpha-1 (RPS6KA1, Homo sapiens, UniProt Q15418): remaining activity read 93.8%.
The remaining activity was 101% (Macrophage colony-stimulating factor 1 receptor (CSF1R, Homo sapiens, UniProt P07333)).
For Beta-adrenergic receptor kinase 1 (GRK2, Homo sapiens, UniProt P25098): remaining activity read 97.7%.
SRSF protein kinase 3 (SRPK3, Homo sapiens, UniProt Q9UPE1) — remaining activity: 96%.
For G protein-coupled receptor kinase 6 (GRK6, Homo sapiens, UniProt P43250): remaining activity read 103%.
It gave 114% for remaining activity (Ephrin type-B receptor 2 (EPHB2, Homo sapiens, UniProt P29323)).
Serine/threonine-protein kinase pim-2 (PIM2, Homo sapiens, UniProt Q9P1W9) — remaining activity: 105%.
Tyrosine-protein kinase CSK (CSK, Homo sapiens, UniProt P41240) — remaining activity: 107%.
It gave 94.8% for remaining activity (NUAK family SNF1-like kinase 1 (NUAK1, Homo sapiens, UniProt O60285)).
The remaining activity was 91.5% (Receptor-type tyrosine-protein kinase FLT3 (FLT3, Homo sapiens, UniProt P36888)).
Myosin light chain kinase, smooth muscle (MYLK, Homo sapiens, UniProt Q15746) — remaining activity: 96.8%.
The remaining activity was 95.8% (Cytoplasmic tyrosine-protein kinase BMX (BMX, Homo sapiens, UniProt P51813)).

Sample 4
Organism: Sarcocystis neurona
Observed: parasite growth
Concentration: 10 µM
Time: 96 h
With `COc1ccc2c(c1)c(CC(=O)O)c(C)n2C(=O)c1ccc(Cl)cc1` the inhibition was -6.8%.
For `CN(C)CCCN1c2ccccc2CCc2ccc(Cl)cc21`, the inhibition was -9.7%.
`C#C[C@]1(O)CC[C@H]2[C@@H]3CCC4=CC(=O)CC[C@@H]4[C@H]3CC[C@@]21C` has an inhibition of -4.9%.
`O=C(c1ccc(OCCN2CCCCC2)cc1)c1c(-c2ccc(O)cc2)sc2cc(O)ccc12` has an inhibition of -4.4%.
For `CC(C)(C#N)c1cc(Cn2cncn2)cc(C(C)(C)C#N)c1`, the inhibition was -18.7%.
`NCC(=O)CCC(=O)O` has an inhibition of -14.7%.
With `CNNCc1ccc(C(=O)NC(C)C)cc1` the inhibition was -7.3%.
For `Cc1ccc(O)c([C@H](CCN(C(C)C)C(C)C)c2ccccc2)c1`, the inhibition was -7.9%.
The inhibition of `Nc1nc(O)c2ncn(COC(CO)CO)c2n1` is reported as -16.4%.
`COC(=O)C1=C(C)NC(C)=C(C(=O)OCC(C)C)C1c1ccccc1[N+](=O)[O-]` (stereo not shown) has an inhibition of -7.3%.
For `CCCC1O[C@@H]2C[C@H]3[C@@H]4CCC5=CC(=O)C=C[C@]5(C)[C@H]4[C@@H](O)C[C@]3(C)[C@]2(C(=O)CO)O1` (stereo partly shown), the inhibition was -19.3%.
The inhibition of `Cc1cccc(Nc2ccccc2C(=O)O)c1C` is reported as -9.1%.

A few entries again (sample 1):
It gave 100% for remaining binding (Tyrosine-protein kinase Blk (BLK, Homo sapiens, UniProt P51451)).
The remaining binding was 98% (Serine/threonine-protein kinase Nek4 (NEK4, Homo sapiens, UniProt P51957)).
It gave 81% for remaining binding (Serine/threonine-protein kinase DCLK2 (DCLK2, Homo sapiens, UniProt Q8N568)).
For Serine/threonine-protein kinase VRK2 (VRK2, Homo sapiens, UniProt Q86Y07): remaining binding read 100%.
